Experimental data of several laboratories.
Each line is one published result; not all experiments were run side by side. “And” joins repeats or separate records; there may be more than shown. Numbers after ± are the reported error.
MAPK8: Mitogen-activated protein kinase 8 (MAPK8, Homo sapiens, UniProt P45983)

| Compound | target or system | test | system | conditions | how to read | endpoint | value |
| --- | --- | --- | --- | --- | --- | --- | --- |
| CC(=O)N[C@H]1[C@H]([C@H](O)[C@H](O)CNC(=O)c2ccc(-c3ccccc3)cc2)O[C@@](OCc2cccc(Cl)c2Cl)(C(=O)O)C[C@@H]1O | CD22 (Homo sapiens, UniProt P20273) | isothermal titration calorimetry |  | concentration not given |  | binding stoichiometry | 1.2 ± 0.08 |
| C#CCOC(=O)[C@@]1(C)C=C(C(=O)OC(C)(C)C)C(=O)CC1 | MAPK1 (Homo sapiens, UniProt P28482) | enzyme activity, D-SENSOR |  | 14.81 µM, single replicate |  | normalized kinase activity | 1 and 0.99 and 0.985 |
| COC1CN([C@H]2CC[C@H]([C@@]3(C)Oc4c(Cl)cc(C(=O)NCc5c(SC)cc(C)[nH]c5=O)c(C)c4O3)CC2)C1 |  | RNA-seq, measured: OSGIN2 mouse homolog | mouse, HT-1376 xenograft, whole blood | dose not given | relative to: vehicle | log2 fold change | 0.0336 |
| CCCCCC(O)/C=C/C=O (stereo not drawn) | Elongation factor 2 (EEF2, Homo sapiens, UniProt P13639) | competitive isoTOP-ABPP | Ramos soluble proteome | 100 µM, with: iodoacetamide probe | relative to: DMSO over compound-treated, higher = stronger cysteine blockade | isoTOP-ABPP competition ratio | 1.6 |
| Nc1ncnc2c1ncn2C1OC(CN(CCCC2CNCc3c2ccc(Cl)c3Cl)CCC(N)C(=O)O)C(O)C1O (mixture of isomers) | PNMT (Homo sapiens, UniProt P11086) | ITC |  | first site, without SAH |  | −TΔS-1 | -16.2 ± 0.1 kcal/mol |
| COC(=O)[C@@]1(C)C=C(C(=O)Nc2cccc(C(=O)Nc3ccc(Nc4nccc(-c5cccnc5)n4)c(C)c3)c2)C(=O)CC1 | Mitogen-activated protein kinase 8, phosphorylated (MAPK8, Homo sapiens, UniProt P45983) | enzyme activity after dialysis, inhibitor |  | 10 µM, 2 days, unit not given | relative to: no inhibitor | remaining activity | 0.132 |
| CC(C)(Sc1nc2ncccc2n1Cc1ccc(Br)c2ccccc12)C(=O)O | SLC22A12 (Homo sapiens, UniProt Q96S37) | urate uptake, inhibitor | HEK293T | 10 min, 37 °C, with: 10 µM [14C]urate |  | IC50 | -0.478 log µM |
| N#CN1CC[C@H](C(=O)Nc2nc3c(s2)CN(C(=O)Cn2cc(CNC(=O)CCCC[C@@H]4SC[C@@H]5NC(=O)N[C@@H]54)nn2)CC3)C1 | Isochorismatase domain-containing protein 1 (Homo sapiens, UniProt Q96CN7) | probe binding, affinity probe, neutravidin pull-down LC-MS/MS | HEK293T, cell lysate | 5 µM, 1 h, single replicate, unit not given | higher = more pulled down | iBAQ abundance | 8.98e+07 and 1.54e+08 and 2.93e+08 |
| CCC1(CC)C(=O)N(c2cccc(C(=O)N3CCN(Cc4ccc(Br)cc4)CC3)c2)C1=O | Dipeptidyl peptidase 8 (Homo sapiens, UniProt Q6V1X1) | inhibitor |  | with: GP-AMC substrate | relative to: Ki' DPP9 over Ki' DPP8 | selectivity ratio | 10 |
| CN(C)c1ccc(-n2cc(COC(=O)[C@@]3(C)C=C(C(=O)OC(C)(C)C)C(=O)CC3)nn2)cc1 | MAPK8 | D-peptide binding, inhibitor, FP peptide displacement |  | 0.7812 µM | lower is stronger displacement | fraction bound | 0.948 |
| O=C(O)[C@H]1O[C@@H](O[C@H]2[C@H](O)[C@H](O)[C@H](O[C@H]3[C@H](O)[C@H](O)[C@H](O)O[C@@H]3C(=O)O)O[C@H]2C(=O)O)[C@@H](O)[C@@H](O)[C@@H]1O[C@@H]1O[C@@H](C(=O)O)[C@@H](O)[C@H](O)[C@@H]1O | Beta-lactoglobulin (LGB, Bos taurus, UniProt P02754, A134V/G80D) | isothermal titration calorimetry |  | concentration not given, pH 2.65, 37 °C, 50 mM KH2PO4 | ligand per protein | binding stoichiometry | 5.1 |
| COC(=O)CN1CCCc2cc3cc(C(=O)NC(Cc4cccc(Cl)c4)C(=O)NCC=CS(=O)(=O)c4ccccc4)c(=O)oc3cc21 (stereo not drawn) | Rhodesain (rhodesain, Trypanosoma brucei rhodesiense, UniProt Q95PM0) | inhibitor |  | pH 5.5, 37 °C, with: Z-Phe-Arg-AMC |  | kinact/Ki | 14400 M⁻¹ s⁻¹ |
| O=C(Cc1ccc(OCc2ccccc2)cc1)NC1(C(=O)O)CCN(C(=O)c2ccc(-c3cccc(Cl)c3)cc2)CC1 | PDK4 (Homo sapiens, UniProt Q16654) | enzyme activity, inhibitor |  | 10 µM |  | activity vs control | 81% |
| Cn1c(=O)n(C2CCC(=O)NC2=O)c2ccc(C3CCN(CC(=O)Nc4cccc(CS(=O)(=O)N5CC[C@H](Nc6cccc(-c7sc(C(=O)O)c(OCC(=O)O)c7Cl)c6)CC5(C)C)c4)CC3)cc21 (stereo partly drawn) | PTPN2 (Homo sapiens, UniProt P17706, H30A/P33A/R35A) | degrader, bio-layer interferometry |  | 500 nM | higher = more binding | BLI binding response | 0.394 a.u. |
| COC(=O)[C@@]1(Cc2ccccc2)C=C(C(=O)OC(C)(C)C)C(=O)CC1 | MAPK8 | D-peptide binding, inhibitor, FP peptide displacement |  | 500 µM | lower is stronger displacement | fraction bound | -0.0933 |
| CCOC(=O)[C@](CC)(CCCSCCOCCOCCNC(=O)c1ccc(C(=O)[O-])c(C2=C3C=CC(=[N+](C)C)C=C3[Si](C)(C)c3cc(N(C)C)ccc32)c1)NC(=O)c1ccc(C2CC2)c(Cc2ccc(F)cc2)n1 | Cnr2 (Mus musculus, UniProt P47936) | cAMP, agonist |  |  |  | Emax | 93% |
| Cc1cc(=O)oc2cc(NC(=O)CCCCCCC(=O)NO)ccc12 | HDAC8 (Homo sapiens, UniProt Q9BY41) | ITC | Tris-HCl buffer | 283 K |  | TΔS° | 4.26 kcal/mol |
| C[Si](C)(C)C[C@H](CN)CC(=O)O | HRH2 (Homo sapiens, UniProt P25021) | cell-free assay, inhibitor |  | 250 µM |  | inhibition | -2% |
| C[C@@H]1C[C@H](Nc2ccccc2)c2cc(F)ccc2N1C(=O)c1ccc(C(F)(F)F)c(F)c1 | Ecdysone receptor (Aedes albopictus, UniProt Q9U3Y4) | ligand binding, inhibitor | intact cells | with: [3H]ponasterone A | direction not given | pIC50 Z-score | 0.51 |
| Cc1cn(CC(=O)N(CC(=O)N[C@H]2COC[C@@H]2N(CC(=O)NCCOCCOCC(N)=O)C(=O)Cn2cnc3c(N)ncnc32)[C@H]2COC[C@@H]2NC(=O)CN(C(=O)Cn2cnc3c(N)ncnc32)[C@H]2COC[C@@H]2NC(=O)CN(C(=O)Cn2cnc3c(=O)[nH]c(N)nc32)[C@H]2COC[C@@H]2NC(=O)CN(C(=O)Cn2cc(C)c(=O)[nH]c2=O)[C@H]2COC[C@@H]2NC(=O)CN(C(=O)Cn2cnc3c(=O)[nH]c(N)nc32)[C@H]2COC[C@@H]2NC(=O)CN(C(=O)Cn2cc(C)c(=O)[nH]c2=O)[C@H]2COC[C@@H]2NC(=O)CN(C(=O)Cn2cnc3c(N)ncnc32)[C@H]2COC[C@@H]2NC(=O)CN(C(=O)Cn2cnc3c(=O)[nH]c(N)nc32)[C@H]2COC[C@@H]2N)c(=O)[nH]c1=O | complementary RNA | duplex formation, UV melting curve fit | PBS | 1 µM, 298 K |  | ΔG | -18 ± 0.1 kcal/mol |
| Cc1cc(NC(=O)[C@H](O)c2cc(F)cc(F)c2)ccc1-c1cnc(N)c(C(=O)NC(C)C)c1 | eIF-2-alpha kinase GCN2, C-terminal kinase domain (EIF2AK4, Homo sapiens, UniProt Q9P2K8, S808G) | binding, competition with immobilised ligand |  | 0.1 µM |  | remaining binding | 88% |
| O=C1c2sc(-c3ccc(N4CCC(CO)CC4)nc3F)nc2CCN1c1cccnc1 | BDKRB2 (Homo sapiens, UniProt P30411) | ligand displacement, radioligand |  | 1 µM |  | inhibition | 5% |
| CCCCCCCCCCCCC/C=C/C=O | Ribonucleoside-diphosphate reductase large subunit (Homo sapiens, UniProt P23921) | competitive isoTOP-ABPP, measured: RRM1 cysteine peptide | Ramos soluble proteome | 100 µM, with: iodoacetamide probe | relative to: DMSO over compound-treated, higher = stronger cysteine blockade | isoTOP-ABPP competition ratio | 1 |
| CC[C@H](C)[C@@H]1NC(=O)[C@H](Cc2c[nH]c3ccccc23)NC(=O)[C@H](C)NC(=O)[C@H](Cc2ccc(O)cc2)NC(=O)CNC(=O)[C@H](Cc2ccccc2)N(C)C(=O)[C@H](C)N(C)C(=O)[C@H](Cc2ccc(O)cc2)NC(=O)[C@H](C(C)C)NC(=O)[C@H](CC(C)C)NC(=O)[C@H](Cc2ccccc2)NC(=O)CSC[C@@H](C(=O)NCC(N)=O)NC1=O | STING1 (Homo sapiens, UniProt Q86WV6, H232R) | thermal stability, DSF |  | 100 µM |  | ΔTm | 0.21 °C |
| CC[C@H](C)[C@H](NC(=O)[C@@H](NC(=O)[C@@H](NC(=O)[C@@H](NC(=O)[C@H](CCCNC(=N)N)NC(=O)[C@H](CCC(=O)O)NC(=O)[C@H](CCC(=O)O)NC(=O)[C@H](C)NC(=O)[C@H](CCC(=O)O)NC(=O)CNC(=O)[C@H](C)NC(=O)CN)C(C)C)C(C)C)C(C)C)C(=O)N[C@@H](CC(=O)O)C(=O)N[C@@H](CC(=O)O)C(=O)N[C@@H](CC(=O)O)C(=O)N[C@@H](CCC(=O)O)C(=O)N[C@@H](CC(=O)O)C(=O)N[C@@H](CC(=O)O)C(=O)N[C@@H](CC(=O)O)C(=O)N[C@@H](C)C(=O)N[C@@H](CCC(=O)O)C(=O)N[C@@H](CC(N)=O)C(=O)N[C@@H](CO)C(=O)N[C@@H](CO)C(=O)N[C@@H](CO)C(=O)N[C@@H](CCCNC(=N)N)C(=O)N[C@@H](Cc1ccc(O)cc1)C(=O)O | Small ubiquitin-related modifier 2, N-terminally truncated (Homo sapiens, UniProt P61956, C48A) | binding, ITC | Tris buffer | pH 7.4, ΔN-SUMO2 |  | ΔH | 2.18 ± 0.4 kcal/mol |
| COC(=O)[C@@]1(C)C=C(C(=O)OC(C)(C)C)C(=O)CC1 | MAPK8 | D-peptide binding, inhibitor, FP peptide displacement |  | 3.906 µM | lower is stronger displacement | fraction bound | 0.911 |
| O=C(O)c1ccccc1SC1=NS(=O)(=O)c2ccccc21 | PKLR (Homo sapiens, UniProt P30613) | enzyme activity, activator |  | 10 µM |  | activity | inactive |
